Measurements pooled from the literature.
Protocols differ between the studies behind these lines. Values joined by “and” are separate records of one study, mostly repeats; a detail may differ. Converted amounts (≈) assume the structure as drawn.
Sequence of UniProt P35372 (whole entry, looked up): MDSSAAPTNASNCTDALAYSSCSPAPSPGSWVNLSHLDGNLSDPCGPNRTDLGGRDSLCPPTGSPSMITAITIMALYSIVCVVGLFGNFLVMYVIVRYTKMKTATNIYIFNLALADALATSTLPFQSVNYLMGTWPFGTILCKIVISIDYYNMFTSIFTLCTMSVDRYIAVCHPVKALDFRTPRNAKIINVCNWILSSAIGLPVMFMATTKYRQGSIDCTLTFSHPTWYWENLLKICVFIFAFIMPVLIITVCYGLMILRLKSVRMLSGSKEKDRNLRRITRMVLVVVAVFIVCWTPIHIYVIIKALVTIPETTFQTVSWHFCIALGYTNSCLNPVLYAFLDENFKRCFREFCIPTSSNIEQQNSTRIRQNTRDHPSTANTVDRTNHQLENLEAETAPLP
Sequence of UniProt Q96SW2 (whole entry, looked up): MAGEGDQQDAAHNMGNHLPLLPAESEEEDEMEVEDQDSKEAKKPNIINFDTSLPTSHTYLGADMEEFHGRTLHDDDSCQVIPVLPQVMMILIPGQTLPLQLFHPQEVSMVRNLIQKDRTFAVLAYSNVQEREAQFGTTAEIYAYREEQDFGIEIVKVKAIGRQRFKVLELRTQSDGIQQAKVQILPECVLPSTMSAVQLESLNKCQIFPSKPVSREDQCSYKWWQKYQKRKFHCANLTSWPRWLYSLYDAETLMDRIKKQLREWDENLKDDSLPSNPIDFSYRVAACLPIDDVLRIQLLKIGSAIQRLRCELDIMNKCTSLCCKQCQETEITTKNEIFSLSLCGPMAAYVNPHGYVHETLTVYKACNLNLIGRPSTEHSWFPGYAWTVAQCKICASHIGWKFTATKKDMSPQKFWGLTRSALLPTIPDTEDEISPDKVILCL
Sequence of UniProt Q12809 (whole entry, looked up): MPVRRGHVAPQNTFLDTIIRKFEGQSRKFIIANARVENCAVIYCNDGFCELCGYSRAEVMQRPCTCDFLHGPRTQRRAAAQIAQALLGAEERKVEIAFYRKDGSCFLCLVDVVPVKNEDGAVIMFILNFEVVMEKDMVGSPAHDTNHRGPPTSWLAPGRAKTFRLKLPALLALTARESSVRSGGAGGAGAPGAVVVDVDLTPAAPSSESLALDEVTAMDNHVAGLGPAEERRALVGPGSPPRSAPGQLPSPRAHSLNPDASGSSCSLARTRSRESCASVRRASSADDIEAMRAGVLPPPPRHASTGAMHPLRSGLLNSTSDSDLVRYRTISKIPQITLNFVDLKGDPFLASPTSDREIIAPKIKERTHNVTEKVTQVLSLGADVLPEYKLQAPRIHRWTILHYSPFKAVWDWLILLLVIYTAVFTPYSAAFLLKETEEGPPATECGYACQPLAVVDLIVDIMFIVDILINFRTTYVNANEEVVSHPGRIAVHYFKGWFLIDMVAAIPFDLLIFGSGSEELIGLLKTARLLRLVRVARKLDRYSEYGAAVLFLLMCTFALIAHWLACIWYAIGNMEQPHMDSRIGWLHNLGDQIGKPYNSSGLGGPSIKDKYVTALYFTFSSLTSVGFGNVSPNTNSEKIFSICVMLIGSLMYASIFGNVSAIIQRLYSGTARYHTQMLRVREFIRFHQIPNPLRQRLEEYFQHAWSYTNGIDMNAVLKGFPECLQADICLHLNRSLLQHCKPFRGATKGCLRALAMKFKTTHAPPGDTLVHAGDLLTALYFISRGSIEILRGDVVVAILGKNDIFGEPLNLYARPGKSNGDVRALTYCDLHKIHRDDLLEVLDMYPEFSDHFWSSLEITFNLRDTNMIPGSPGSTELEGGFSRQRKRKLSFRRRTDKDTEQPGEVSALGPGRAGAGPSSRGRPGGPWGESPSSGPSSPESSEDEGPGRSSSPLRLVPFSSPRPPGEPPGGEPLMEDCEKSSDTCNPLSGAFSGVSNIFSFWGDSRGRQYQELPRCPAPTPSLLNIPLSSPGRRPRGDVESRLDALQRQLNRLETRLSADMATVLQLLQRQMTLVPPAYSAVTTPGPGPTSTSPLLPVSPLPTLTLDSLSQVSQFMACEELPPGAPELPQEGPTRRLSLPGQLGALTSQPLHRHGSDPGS

The MIC of `CCCCC[C@@H]1CC(=O)N[C@@H](C(C)C)C(=O)N[C@H](CCCNC(=N)N)C(=O)N[C@@H](C(C)C)C(=O)NCC(=O)N2CCC[C@H]2C(=O)N[C@@H](CC(C)C)C(=O)N[C@H](CCCNC(=N)N)C(=O)N[C@@H](CCC(=O)O)C(=O)N[C@H](Cc2ccc(O)cc2)C(=O)N[C@H](Cc2c[nH]c3ccccc23)C(=O)NCCCC(=O)O1` is reported as 16 µg/mL (≈ 10.8 µM) (Staphylococcus aureus; USA300; together with: menaquinone 4 µg/mL).
The inhibition of `O=C1CC[C@@H](Nc2ccc(N3CCNCC3)c(F)c2)C(=O)N1` is reported as 40.9% and 42.6% (Protein cereblon (CRBN, Homo sapiens, UniProt Q96SW2); binding; 370.37 nM).
For `C#CCN1C(=O)C(O)(C(=O)O)Oc2cc(F)ccc21` (centres unmarked), the hypocotyl length was 2.16 cm and 2.13 cm and 2.14 cm and 2.2 cm and 2.23 cm (Arabidopsis thaliana; Col-0; 3.125 µg/mL, seed germination, single repetition).
`Cc1cc(-c2cnc(N)c3c(-c4ccc5scnc5c4)csc23)n(C)n1` has a viability of 75.4% (L929; necroptosis protection, CCK-8; 5 µM, together with: TNF-α-induced).
`CCCCC[C@@H](O)CC(=O)N[C@@H]1C(=O)N[C@H](CCCNC(=N)N)C(=O)N[C@@H](CO)C(=O)NCC(=O)N(C)[C@H](Cc2ccccc2)C(=O)N[C@@H](CC(C)C)C(=O)N[C@H](CCCNC(=N)N)C(=O)N[C@@H](CCC(=O)O)C(=O)N[C@H](CCC(N)=O)C(=O)N[C@H](Cc2c[nH]c3ccccc23)C(=O)N[C@@H]([C@@H](C)CC)C(=O)N[C@@H]([C@@H](C)O)C(=O)O[C@@H]1C` gave an MIC of greater than 64 µg/mL (Escherichia coli; microbial growth; 16 h).
For `N=C(N)NCCCCCCN1CCC23c4c5ccc(O)c4OC2c2nc4ccccc4cc2CC3(O)C1C5` (centres unmarked), the specific binding was 12.6% and 19.3% and 25.5% (OPRM1 (Homo sapiens, UniProt P35372); competitor, radioligand binding; 1 µM).
`C=CCN1C(=O)C(O)(C(=O)O)Oc2cc(F)ccc21` (centres unmarked) has a hypocotyl length of 1.37 cm and 1.35 cm and 1.36 cm and 1.32 cm (Arabidopsis thaliana; Col-0; 100 µg/mL, seed germination, single repetition).
`Cn1cc(-c2cccc(CN3CCC4(CC3)COc3c4ccc4c3CN([C@H]3CCC(=O)NC3=O)C4=O)c2)cn1` has an IC50 of 47.5 µM (KCNH2 (Homo sapiens, UniProt Q12809); potassium current, inhibitor, manual patch clamp; measured concentrations).

For quick reference, copied from above:
For `C#CCN1C(=O)C(O)(C(=O)O)Oc2cc(F)ccc21` (centres unmarked), the hypocotyl length was 2.16 cm and 2.13 cm and 2.14 cm and 2.2 cm and 2.23 cm (Arabidopsis thaliana; Col-0; 3.125 µg/mL, seed germination, single repetition).
